Assay results gathered from unrelated publications.
Each line is one published result; not all experiments were run side by side. Numbers after ± are the reported error.

The IC50 of `Cc1ccnn1-c1cccc(NC(=O)CC2OC(=O)c3ccccc32)c1` (stereo not drawn) is reported as 530 µM (classical complement MAC deposition, ELISA; human serum 1%; saturable inhibition not reached).
`Cc1cc(-c2ccnc(Nc3cnn(C)c3)n2)ccc1CNC(=O)N1CC(OC(C)C)C1` gave an IC50 of 2 µM (basophil degranulation, measured: CD63; human whole blood; together with: FcεR stimulation).
For `CC1(C)CC(N)CC(C)(C)N1.Cc1c(C)c2c(c(C)c1O)CCC(C)(C(=O)O)O2` (stereo not drawn), the IC50 was 66 µM (DPPH radical scavenging; methanol; 10 min, together with: DPPH 70 µM).
`CC(C=CC1(C)C(C)CCC(=O)C1C)=CCc1c(O)c(C=O)c(C)c(Cl)c1OC(=O)c1cccnc1` (stereo not drawn) gave an IC50 of 0.08 µM (succinate-dependent oxygen uptake, inhibitor; rat liver mitochondria; together with: succinate 15 mM).
`CC(C)CCC[C@@H](C)[C@H]1CC[C@H]2[C@@H]3CC=C4C[C@@H](O)CC[C@]4(C)[C@H]3CC[C@]12C` gave an IC50 of 99 ± 20 µM (cap-dependent translation; rabbit reticulocyte lysate; 1 h preincubation, together with: capped luciferase mRNA).
For `NC[C@H]1O[C@H](O[C@H]2[C@H](O)[C@@H](O[C@H]3O[C@H](CO)[C@@H](O)[C@H](N)[C@H]3O)[C@H](N)C[C@@H]2N)[C@H](N)C[C@@H]1O`, the IC50 was 0.0089 ± 0.0019 µM (luciferase reporter translation; Escherichia coli cell lysate).
For `O=C(O)/C=C/c1ccc(O)c(O)c1`, the IC50 was 40.9 µM (DPPH radical scavenging; ethanol; 30 min).
`COC(=O)C[C@](O)(CCCC(C)(C)O)C(=O)O[C@@H]1C(OC)=C[C@]23CCCN2CCc2cc4c(cc2[C@H]13)OCO4` gave an IC50 of roughly 0.5 µM (translation, inhibitor, measured: firefly luciferase reporter; Krebs-2 cell lysate).
The IC50 of `COc1cnc(NS(=O)(=O)c2ccc(NC(=O)/C=C\c3ccc(OC(C)=O)c(OC(C)=O)c3)cc2)nc1` is reported as 798 µM (DPPH radical scavenging; ethanol; 30 min).
`O=C(O)c1nn(Cc2ccc(Cl)cc2Cl)c2ccccc12` has an IC50 of roughly 20 µM (uncoupled glutamate oxidation, inhibitor, oxygen electrode; rat heart mitochondria).
`O=C1O[C@H]([C@@H](O)CO)C(O)=C1O` gave an IC50 of 41 ± 3.1 µM (H2O2 scavenging).
`protein S (human)` gave an IC50 of 0.16 µM (FXa-induced clotting; human protein S-depleted plasma; 37 °C, no exogenous phospholipid).
The IC50 of `CC(=O)Oc1ccc(/C=C\C(=O)Nc2ccc(S(N)(=O)=O)cc2)cc1OC(C)=O` is reported as 223 µM (DPPH radical scavenging; ethanol; 30 min).
For `CCN[C@@H]1C[C@H](N)[C@@H](O[C@H]2OC(CN)=CC[C@H]2N)[C@H](O)[C@H]1O[C@H]1OC[C@](C)(O)[C@H](NC)[C@H]1O`, the IC50 was 0.7 µM ([14C]-phenylalanine incorporation, inhibitor, (UUU)12-directed cell-free translation; Mycolicibacterium smegmatis wild-type 70S ribosomes; 60 min, 37 °C).
The IC50 of `Cc1c(CN2CCN(C(=O)[C@H](C)O)CC2)sc2c(N3CCOCC3)nc(-c3cnc(N)nc3)nc12` is reported as 9.32 ng/mL (measured: pAkt; patients with advanced solid tumours, platelet-rich plasma; typical patient, PK-PD model).
For `Cn1c[n+]([C@@H]2O[C@H](COP(=O)(O)OP(=O)([O-])OP(=O)(O)OC[C@H]3O[C@@H](n4cnc5c(=O)[nH]c(N)nc54)[C@H](O)[C@@H]3O)[C@@H](O)[C@H]2O)c2nc(N)[nH]c(=O)c21`, the IC50 was 13.9 ± 0.6 µM (cap-dependent translation, inhibitor; rabbit reticulocyte lysate).
`CC(=CCc1c(O)cc(C)c(C=O)c1O)CCC1(C)C(C)CCC(=O)C1C` (stereo not drawn) has an IC50 of 3.84 µM (succinate-dependent oxygen uptake, inhibitor; rat liver mitochondria; together with: succinate 15 mM).
The IC50 of `CC12CCC(CC1=O)C2(C)C` (stereo not drawn) is reported as greater than 2630 µM (DPPH radical scavenging; 15 min).
`CC(/C=C/[C@@]1(C)[C@H](C)CCC(=O)[C@@H]1C)=C\Cc1c(O)c(Cl)c(C)c(C=O)c1O` has an IC50 of 0.013 µM (succinate-dependent oxygen uptake, inhibitor; rat liver mitochondria; together with: succinate 15 mM).
`CC(=O)Oc1ccc(/C=C\C(=O)Nc2ccc(S(=O)(=O)Nc3ncccn3)cc2)cc1OC(C)=O` gave an IC50 of 260 µM (DPPH radical scavenging; ethanol; 30 min).
`NC[C@@H]1O[C@H](O[C@H]2[C@@H](O)[C@H](O[C@@H]3[C@@H](O)[C@H](N)C[C@H](N)[C@H]3O[C@H]3O[C@H](CO)[C@@H](O)[C@H](O)[C@H]3N)O[C@@H]2CO)[C@H](N)[C@@H](O)[C@@H]1O` gave an IC50 of 0.9 µM ([14C]-phenylalanine incorporation, inhibitor, (UUU)12-directed cell-free translation; Mycolicibacterium smegmatis wild-type 70S ribosomes; 60 min, 37 °C).
`Oc1cc(O)cc(/C=C/c2ccc(O)c(O)c2)c1` has an IC50 of 9 ± 2 µM (superoxide scavenging; PMS-NADH system; pH 10.0).
`glutathione` gave an IC50 of less than 15000 ng/mL (superoxide radical scavenging; 4 min, pH 8.3).
With `O=C1O[C@H]([C@@H](O)CO)C(O)=C1O` the IC50 was 3.4 µM (DPPH radical scavenging; 30 min).

A few entries again:
`CC(C=CC1(C)C(C)CCC(=O)C1C)=CCc1c(O)c(C=O)c(C)c(Cl)c1OC(=O)c1cccnc1` (stereo not drawn) gave an IC50 of 0.08 µM (succinate-dependent oxygen uptake, inhibitor; rat liver mitochondria; together with: succinate 15 mM).
`CC(C)CCC[C@@H](C)[C@H]1CC[C@H]2[C@@H]3CC=C4C[C@@H](O)CC[C@]4(C)[C@H]3CC[C@]12C` gave an IC50 of 99 ± 20 µM (cap-dependent translation; rabbit reticulocyte lysate; 1 h preincubation, together with: capped luciferase mRNA).
For `NC[C@H]1O[C@H](O[C@H]2[C@H](O)[C@@H](O[C@H]3O[C@H](CO)[C@@H](O)[C@H](N)[C@H]3O)[C@H](N)C[C@@H]2N)[C@H](N)C[C@@H]1O`, the IC50 was 0.0089 ± 0.0019 µM (luciferase reporter translation; Escherichia coli cell lysate).
